Measured values collected from several papers.
Each line is one published result; not all experiments were run side by side. ± marks the error that the study gave.
Nuclear receptor subfamily 2 group C member 2 ligand-binding domain: Nuclear receptor subfamily 2 group C member 2, ligand-binding domain (Homo sapiens, UniProt P49116)
Chain of UniProt P49116 (whole entry, looked up): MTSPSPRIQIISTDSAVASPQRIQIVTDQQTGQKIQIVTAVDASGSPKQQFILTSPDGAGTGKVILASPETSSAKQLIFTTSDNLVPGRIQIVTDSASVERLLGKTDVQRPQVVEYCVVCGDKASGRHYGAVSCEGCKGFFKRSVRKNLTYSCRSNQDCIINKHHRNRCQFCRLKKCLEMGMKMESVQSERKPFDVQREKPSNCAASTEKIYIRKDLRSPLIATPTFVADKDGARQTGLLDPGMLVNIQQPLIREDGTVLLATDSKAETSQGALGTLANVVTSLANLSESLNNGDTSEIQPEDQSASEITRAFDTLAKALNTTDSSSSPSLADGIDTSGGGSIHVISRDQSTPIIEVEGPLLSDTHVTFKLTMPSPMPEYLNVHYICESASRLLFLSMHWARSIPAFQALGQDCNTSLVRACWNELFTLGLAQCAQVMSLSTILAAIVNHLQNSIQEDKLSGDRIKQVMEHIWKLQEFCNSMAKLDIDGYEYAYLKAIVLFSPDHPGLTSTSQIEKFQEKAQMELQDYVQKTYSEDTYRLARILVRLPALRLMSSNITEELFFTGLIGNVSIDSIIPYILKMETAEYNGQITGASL

SMILES	tested on	test	test system	conditions	quantity	value
O=C(O)c1ccc(O)c(OS(=O)(=O)O)c1			human plasma	median	plasma concentration	49.9 nM
Cc1cccc(Nc2ccccc2C(=O)O)c1C	Nuclear receptor subfamily 2 group C member 2 ligand-binding domain	SPR imaging			Kd	0.0181 nM
COc1cccc(-c2n[nH]c(SCc3ccccn3)n2)c1OC			Sprague-Dawley rats, both sexes	oral dietary, 10 mg/kg/day, day 90, 24 h	plasma concentration	161 ng/mL
Cc1ccc(NC(=O)CCCCCC(=O)Nc2ccccc2N)cc1	OCI-Ly1			0.5 µM, 120 h	viability	150%
O=c1c(O)c(-c2ccc(O)c(OS(=O)(=O)O)c2)oc2cc(O)cc(O)c12			human plasma	median	plasma concentration	91.9 nM
O=C1CCC(N2Cc3cc(CO)c(F)cc3C2=O)C(=O)N1 (stereo not drawn)			cynomolgus monkey, male	oral, 0.3 mg/kg parent drug, 2 h	plasma concentration	1.02 ± 0.64 ng/mL
O=C(O)c1c(O)cccc1O			human plasma	mean, both sexes	plasma concentration	7580 nM
Cc1c(C(=O)O)ccc2c3n(nc12)[C@@H]1[C@H](C3)N(CC2CC2)[C@@]2(C(=O)Nc3cc(Cl)ccc32)[C@H]1c1cccc(Cl)c1F			female BALB/c nude mice, SJSA-1 xenograft, plasma	oral, 1 mg/kg twice daily, 4 h	plasma concentration	972 nM
O=C(O)CCc1cccc(O)c1O			human plasma	median	plasma concentration	945 nM
CC(C)C[C@H](NC(=O)[C@@H](Cc1c[nH]c2ccccc12)NC(=O)[C@H](Cc1ccc(O)cc1)NC(=O)[C@H](CO)NC(=O)[C@H](Cc1c[nH]c2ccccc12)NC(=O)[C@H](Cc1c[nH]cn1)NC(=O)[C@@H]1CCC(=O)N1)C(=O)N[C@@H](CCCNC(=N)N)C(=O)N1CCC[C@H]1C(=O)NCC(N)=O			Chinese boys, precocious puberty, plasma	intramuscular, 22.5 mg, 8640 h, month 12, mean	plasma concentration	0.0224 ng/mL
O=S(=O)(O)Oc1cc(CCO)ccc1O			human plasma	median	plasma concentration	258 nM
CC(=O)NCc1cc2c(cc1F)C(=O)N(C1CCC(=O)NC1=O)C2 (stereo not drawn)			cynomolgus monkey, male	oral, 0.3 mg/kg parent drug, 4 h	plasma concentration	0.18 ng/mL
Cn1cc([C@H]2C[C@H]3CSC(N)=N[C@@]3(c3ccc(F)cc3F)CO2)cn1			male 129/SVE mouse, plasma	subcutaneous, 3 mg/kg, 9 h	plasma concentration	6 nM
NCc1cc2c(cc1F)C(=O)N(C1CCC(=O)NC1=O)C2 (stereo not drawn)			cynomolgus monkeys	oral, 0.3 mg/kg, 0.117 h	plasma concentration	not detected
Cc1c(-c2ccc(N3CCc4cccc(C(=O)Nc5nc6ccccc6s5)c4C3)nc2C(=O)O)cnn1CC12CC3(C)CC(C)(C1)CC(OCCNCC[C@H](O)CO)(C3)C2			anaesthetized male beagle dog	iv infusion, 0.1 mg/kg/min, 15 min	plasma concentration	29 ng/mL
CC1CC(OC(=O)C(O)c2ccccc2)CC(C)(C)C1 (stereo not drawn)	Nuclear receptor subfamily 2 group C member 2 ligand-binding domain	SPR imaging			Kd	0.219 nM
O=Cc1cc2c(cc1F)C(=O)N(C1CCC(=O)NC1=O)C2 (stereo not drawn)			cynomolgus monkey, male	oral, 0.3 mg/kg parent drug, 6 h	plasma concentration	0.24 ng/mL
C[C@H](CCC(=O)NCC(=O)O)[C@H]1CC[C@H]2[C@@H]3CC[C@@H]4C[C@H](O)CC[C@]4(C)[C@H]3C[C@H](O)[C@]12C			women, T/T genotype, plasma	dose not given, geometric mean	plasma concentration	109 ng/mL
